Results gathered from unrelated publications.
A part holds a random share of what one study measured. Positions count from the first letter of the parent shown.

Block 1
Target: RNA binding protein fox-1 homolog 2, RRM domain, GST-SBP tag (RBFOX2, Homo sapiens, UniProt O43251-10, residues 100-194)
Method: RNA Bind-n-Seq
Molecule type: RNA
Sample: in vitro
Concentration: 365 nM
Notes: natural RNA segment, single round, ends assumed
Baseline: no-protein control
Direction: higher = stronger binding
Residues (chain): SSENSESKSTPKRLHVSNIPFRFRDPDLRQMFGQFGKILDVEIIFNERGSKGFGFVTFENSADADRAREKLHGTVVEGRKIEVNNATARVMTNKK
Under “RBNS enrichment (R)”, `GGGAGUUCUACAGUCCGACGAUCGUCUUUCCUAUGAAAAUGCCAUCUGUAGACCUUGUGAGUCAGCCGUCCAGAUGUUUGCAGGUGAAUUCCUCUGCUUGACAUCCUCCCUGUCACUUUGGACCCUAUGGGAGUGGAAUUCUCGGGUGCCAA` is recorded as 0.536.
Under “RBNS enrichment (R)”, `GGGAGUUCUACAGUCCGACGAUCGAAAGUGGCCUAGUAACUCUGAGUAUUUUAAAGAAUGCUUUAUCAUUUUUUAAAGAUGUCAAGAAACUAGCUAUAGCUGCCUAAGAAUUGAAUCUAUUGUAUUUCCCUCUUGGAAUUCUCGGGUGCCAA` is recorded as 0.219.
`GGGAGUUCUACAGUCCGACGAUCCCCGGCUAUCAGCACUGUUCUGAUUGCAGACGUUUCACAGCAUGUUUGGCUUUUGGUAAAUUCAAUCCAGGAAAGACUAGCAUGUGCACUUUAUCUCAUAAUCUUCCAGUUGGAAUUCUCGGGUGCCAA`: “RBNS enrichment (R)” 3.38.
`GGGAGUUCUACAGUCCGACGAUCCGCCCUGUACUGCACUAGAAUGAUGUAAUACCCCAAGAUGUCUGCUGCAGGUGGUGCAUCAUCGUAUACACUAAGUGACAUUUCUAUCACAAUCAUUUUAUGGAAGAUGUUGGAAUUCUCGGGUGCCAA`: “RBNS enrichment (R)” 0.596.
For `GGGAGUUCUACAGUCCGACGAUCCUGAGUACAGCUUAGAUGUUAGCUGGAGAGGAAGAUGGUGUGGCAGGUCUCUGGUCUCCCUACCCCUGCUGUGCUGAUCACAGUCCCUCCCAGUUACCACUAGGACAUUCUGGAAUUCUCGGGUGCCAA`, “RBNS enrichment (R)” read 0.42.
`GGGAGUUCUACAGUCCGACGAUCAGCUGGCUGGGGGGAAGGGCUUGUUCCCUACAGUGUCUGUUCUGUGAAGUUUGUUACGUGUAAGGGAAGCUGAAGUUCUUGUAUCUUUAAAGAGGAAAUCUUAUUUAACCUGGAAUUCUCGGGUGCCAA` — result for “RBNS enrichment (R)”: 0.699.
For `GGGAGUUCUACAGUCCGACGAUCUUUUCCAUACUCAGAAUGAAAAACUGGAUAUUACGUUUUUGUUUUGGGGUUUUUUUGUACAAAUUUAGCUAAUAGCUACAGGCUGAGAGAAUUGUAACAUAGCAUGACAAUGGAAUUCUCGGGUGCCAA`, “RBNS enrichment (R)” read 51.8.
`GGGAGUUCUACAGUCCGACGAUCGAUUUACUCAGAGCCACCUGACAGCAGGCCACUAGUGACAGUUUCUGUUAUGUUCCUAUGGAAACACUGUACUGUACAUACUAUGCUUAAAACAUUUAAAACACAAUGUUUGGAAUUCUCGGGUGCCAA` — result for “RBNS enrichment (R)”: 0.472.

Block 2
Target: inorganic phosphate, free oxyanion
Method: microfluidic competitive inhibition
Sample: in vitro, cell-free expressed
Concentration: not given
Notes: derived from inhibition constants, unchanged parent 615000 nM
Direction: lower = stronger binding
Parent: PafA, mature enzyme, eGFP fusion (Elizabethkingia meningoseptica, UniProt Q9KJX5); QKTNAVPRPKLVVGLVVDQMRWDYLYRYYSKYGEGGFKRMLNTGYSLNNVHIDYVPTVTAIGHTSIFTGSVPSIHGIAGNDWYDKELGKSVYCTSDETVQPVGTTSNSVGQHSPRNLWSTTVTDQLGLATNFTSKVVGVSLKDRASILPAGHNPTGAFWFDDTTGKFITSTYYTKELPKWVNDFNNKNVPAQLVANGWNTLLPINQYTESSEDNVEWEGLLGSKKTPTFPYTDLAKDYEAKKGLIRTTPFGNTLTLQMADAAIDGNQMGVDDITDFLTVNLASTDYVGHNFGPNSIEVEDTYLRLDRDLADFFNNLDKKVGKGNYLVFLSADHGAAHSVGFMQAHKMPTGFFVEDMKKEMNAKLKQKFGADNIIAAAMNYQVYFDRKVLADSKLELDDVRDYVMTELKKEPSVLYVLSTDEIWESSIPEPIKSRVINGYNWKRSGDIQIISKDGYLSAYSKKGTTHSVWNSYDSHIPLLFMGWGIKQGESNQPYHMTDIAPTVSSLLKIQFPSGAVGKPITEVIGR
Under “phosphate dissociation constant”, `F511V` is recorded as 576 µM.
For `G251V`, “phosphate dissociation constant” read 413 µM.
`W180G`: “phosphate dissociation constant” 549 µM.
`A235G`: “phosphate dissociation constant” 520 µM.
Under “phosphate dissociation constant”, `Q19V` is recorded as 255 µM.

Block 3
Target: CCNB2, cyclin fold, Cln2 fusion (human)
Method: yeast growth competition, sequencing
Sample: yeast
Notes: weak parent motif
Baseline: not given
Direction: higher = stronger binding
Parent: viral docking peptide; KKVKRRLFETREL
`L13A` — result for “normalised enrichment score”: -0.113.
`V3A`: “normalised enrichment score” 0.499.
`F8A` — result for “normalised enrichment score”: 0.352.
`R5K`: “normalised enrichment score” 0.719.
`T10A` — result for “normalised enrichment score”: 0.281.
`R11A` — result for “normalised enrichment score”: -0.217.
For `R5A`, “normalised enrichment score” read 1.02.
Under “normalised enrichment score”, `K4A` is recorded as 0.089.
`R5A L7A`: “normalised enrichment score” 0.581.
`F8L`: “normalised enrichment score” 0.85.

Block 4
Target: UDP-N-acetylglucosamine--peptide N-acetylglucosaminyltransferase 110 kDa subunit (OGT, Homo sapiens, UniProt O15294)
Chain of UniProt O15294 (whole entry, looked up): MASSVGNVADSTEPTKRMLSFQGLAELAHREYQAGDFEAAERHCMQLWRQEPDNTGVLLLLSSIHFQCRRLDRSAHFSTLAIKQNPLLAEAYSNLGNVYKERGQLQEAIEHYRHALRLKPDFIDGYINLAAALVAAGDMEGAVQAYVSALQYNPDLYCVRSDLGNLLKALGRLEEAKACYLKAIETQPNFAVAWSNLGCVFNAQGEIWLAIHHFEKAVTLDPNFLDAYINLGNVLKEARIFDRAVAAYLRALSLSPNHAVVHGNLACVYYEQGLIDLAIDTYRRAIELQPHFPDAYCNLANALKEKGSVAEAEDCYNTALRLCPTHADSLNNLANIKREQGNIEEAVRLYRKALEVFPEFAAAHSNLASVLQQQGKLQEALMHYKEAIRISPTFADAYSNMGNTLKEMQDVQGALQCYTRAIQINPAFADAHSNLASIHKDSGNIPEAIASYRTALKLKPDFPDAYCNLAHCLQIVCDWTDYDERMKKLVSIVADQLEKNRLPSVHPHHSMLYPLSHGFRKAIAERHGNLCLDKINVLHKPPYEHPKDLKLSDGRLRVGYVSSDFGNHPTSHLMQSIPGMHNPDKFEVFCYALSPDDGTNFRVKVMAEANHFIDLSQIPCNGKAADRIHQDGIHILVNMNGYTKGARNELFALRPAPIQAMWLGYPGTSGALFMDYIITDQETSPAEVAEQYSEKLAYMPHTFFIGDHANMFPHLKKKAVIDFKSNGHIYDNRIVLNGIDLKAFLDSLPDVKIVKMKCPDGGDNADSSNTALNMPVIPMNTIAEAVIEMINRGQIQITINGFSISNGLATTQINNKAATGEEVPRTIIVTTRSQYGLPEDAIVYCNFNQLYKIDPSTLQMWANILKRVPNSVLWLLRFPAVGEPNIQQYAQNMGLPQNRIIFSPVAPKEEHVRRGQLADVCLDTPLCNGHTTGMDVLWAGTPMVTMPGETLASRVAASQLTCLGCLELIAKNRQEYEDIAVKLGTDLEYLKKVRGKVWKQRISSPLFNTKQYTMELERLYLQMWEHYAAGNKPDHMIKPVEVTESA
Observed: binding
Method: phage display NGS
Molecule type: peptide
Notes: panning round 2
Baseline: input library
`HYERHQSHPWEEFMH`: “minimum log2 enrichment ratio” 2.64.
`QPIDWLHVHRNYHH` — result for “minimum log2 enrichment ratio”: 2.63.
Under “minimum log2 enrichment ratio”, `HWTSHYQHMPVHGDH` is recorded as 2.82.
`HPQMHPFRGQQHHVY` — result for “minimum log2 enrichment ratio”: 2.34.

Repeated from above (block 2):
For `G251V`, “phosphate dissociation constant” read 413 µM.
`A235G`: “phosphate dissociation constant” 520 µM.
Under “phosphate dissociation constant”, `F511V` is recorded as 576 µM.
